{"data": "Published values from different studies", "Spike glycoprotein": "Spike glycoprotein (Severe acute respiratory syndrome coronavirus 2, UniProt P0DTC2)", "Polyprotein P1234 nsP2 protease domain": "Polyprotein P1234, nsP2 protease domain (Chikungunya virus, UniProt Q5XXP4)", "ACE2": "Angiotensin-converting enzyme 2 (ACE2, Homo sapiens, UniProt Q9BYF1)", "tcdB": "Toxin B (tcdB, Clostridioides difficile, UniProt P18177)", "note": "Protocols differ between the studies behind these lines. ± marks the error that the study gave.", "sequence of UniProt P18177 (whole entry, looked up)": "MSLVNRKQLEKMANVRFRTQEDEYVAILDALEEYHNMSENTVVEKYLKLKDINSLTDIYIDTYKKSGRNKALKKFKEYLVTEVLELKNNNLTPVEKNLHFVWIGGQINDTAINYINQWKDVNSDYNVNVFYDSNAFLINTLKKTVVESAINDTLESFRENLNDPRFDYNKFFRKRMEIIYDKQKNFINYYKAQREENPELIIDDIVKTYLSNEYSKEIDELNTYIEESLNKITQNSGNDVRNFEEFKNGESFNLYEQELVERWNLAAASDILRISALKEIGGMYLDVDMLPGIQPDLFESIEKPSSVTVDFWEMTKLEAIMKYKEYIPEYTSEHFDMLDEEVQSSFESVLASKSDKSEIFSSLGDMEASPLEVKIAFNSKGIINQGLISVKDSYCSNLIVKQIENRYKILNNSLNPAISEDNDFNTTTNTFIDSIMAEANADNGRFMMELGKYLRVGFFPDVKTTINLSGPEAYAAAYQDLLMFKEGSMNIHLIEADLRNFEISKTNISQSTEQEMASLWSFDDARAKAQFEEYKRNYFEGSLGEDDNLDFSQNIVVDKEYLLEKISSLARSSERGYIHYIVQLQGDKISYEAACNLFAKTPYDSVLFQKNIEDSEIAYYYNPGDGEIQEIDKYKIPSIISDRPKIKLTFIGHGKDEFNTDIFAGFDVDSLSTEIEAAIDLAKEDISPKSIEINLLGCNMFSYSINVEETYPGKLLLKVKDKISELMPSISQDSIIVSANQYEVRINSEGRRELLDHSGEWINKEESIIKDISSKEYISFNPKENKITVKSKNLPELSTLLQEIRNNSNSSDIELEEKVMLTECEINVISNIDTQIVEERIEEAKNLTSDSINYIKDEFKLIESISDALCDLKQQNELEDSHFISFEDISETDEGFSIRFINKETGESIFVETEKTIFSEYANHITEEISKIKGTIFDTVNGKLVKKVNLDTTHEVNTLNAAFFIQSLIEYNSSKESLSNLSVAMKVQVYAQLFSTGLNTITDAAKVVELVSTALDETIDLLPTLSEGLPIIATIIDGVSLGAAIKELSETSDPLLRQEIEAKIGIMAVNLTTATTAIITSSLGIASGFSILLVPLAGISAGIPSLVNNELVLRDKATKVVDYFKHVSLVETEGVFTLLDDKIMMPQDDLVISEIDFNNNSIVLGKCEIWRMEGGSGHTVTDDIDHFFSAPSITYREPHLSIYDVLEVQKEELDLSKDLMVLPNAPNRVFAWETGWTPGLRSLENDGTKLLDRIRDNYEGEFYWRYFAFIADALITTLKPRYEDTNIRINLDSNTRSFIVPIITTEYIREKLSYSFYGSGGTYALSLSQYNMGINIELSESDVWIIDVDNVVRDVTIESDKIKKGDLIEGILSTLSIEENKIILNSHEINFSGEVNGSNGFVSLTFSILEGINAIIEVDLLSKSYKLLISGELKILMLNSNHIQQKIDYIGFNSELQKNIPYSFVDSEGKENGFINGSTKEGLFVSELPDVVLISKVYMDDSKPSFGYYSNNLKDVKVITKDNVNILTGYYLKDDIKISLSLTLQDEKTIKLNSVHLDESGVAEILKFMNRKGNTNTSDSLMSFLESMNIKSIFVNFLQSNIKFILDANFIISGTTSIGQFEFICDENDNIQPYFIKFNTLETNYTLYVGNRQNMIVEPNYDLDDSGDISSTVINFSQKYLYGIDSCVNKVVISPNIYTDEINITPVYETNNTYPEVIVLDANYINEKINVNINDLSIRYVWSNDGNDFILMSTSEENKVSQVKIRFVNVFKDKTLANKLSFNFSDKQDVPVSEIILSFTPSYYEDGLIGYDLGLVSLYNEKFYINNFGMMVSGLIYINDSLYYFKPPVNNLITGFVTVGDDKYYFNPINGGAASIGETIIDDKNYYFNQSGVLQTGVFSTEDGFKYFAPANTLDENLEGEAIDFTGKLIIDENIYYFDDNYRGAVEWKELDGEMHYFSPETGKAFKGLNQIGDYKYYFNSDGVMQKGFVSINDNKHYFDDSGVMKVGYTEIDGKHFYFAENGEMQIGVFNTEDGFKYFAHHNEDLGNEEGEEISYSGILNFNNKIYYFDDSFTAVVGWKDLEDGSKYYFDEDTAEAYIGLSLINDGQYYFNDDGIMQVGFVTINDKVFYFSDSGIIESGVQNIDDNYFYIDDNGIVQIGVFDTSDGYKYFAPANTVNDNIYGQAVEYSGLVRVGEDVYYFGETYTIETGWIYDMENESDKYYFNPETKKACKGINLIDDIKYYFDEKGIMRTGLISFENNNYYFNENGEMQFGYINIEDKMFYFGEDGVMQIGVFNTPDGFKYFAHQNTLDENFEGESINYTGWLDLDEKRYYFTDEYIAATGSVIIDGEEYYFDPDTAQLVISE", "sequence of UniProt Q5XXP4 (whole entry, looked up)": "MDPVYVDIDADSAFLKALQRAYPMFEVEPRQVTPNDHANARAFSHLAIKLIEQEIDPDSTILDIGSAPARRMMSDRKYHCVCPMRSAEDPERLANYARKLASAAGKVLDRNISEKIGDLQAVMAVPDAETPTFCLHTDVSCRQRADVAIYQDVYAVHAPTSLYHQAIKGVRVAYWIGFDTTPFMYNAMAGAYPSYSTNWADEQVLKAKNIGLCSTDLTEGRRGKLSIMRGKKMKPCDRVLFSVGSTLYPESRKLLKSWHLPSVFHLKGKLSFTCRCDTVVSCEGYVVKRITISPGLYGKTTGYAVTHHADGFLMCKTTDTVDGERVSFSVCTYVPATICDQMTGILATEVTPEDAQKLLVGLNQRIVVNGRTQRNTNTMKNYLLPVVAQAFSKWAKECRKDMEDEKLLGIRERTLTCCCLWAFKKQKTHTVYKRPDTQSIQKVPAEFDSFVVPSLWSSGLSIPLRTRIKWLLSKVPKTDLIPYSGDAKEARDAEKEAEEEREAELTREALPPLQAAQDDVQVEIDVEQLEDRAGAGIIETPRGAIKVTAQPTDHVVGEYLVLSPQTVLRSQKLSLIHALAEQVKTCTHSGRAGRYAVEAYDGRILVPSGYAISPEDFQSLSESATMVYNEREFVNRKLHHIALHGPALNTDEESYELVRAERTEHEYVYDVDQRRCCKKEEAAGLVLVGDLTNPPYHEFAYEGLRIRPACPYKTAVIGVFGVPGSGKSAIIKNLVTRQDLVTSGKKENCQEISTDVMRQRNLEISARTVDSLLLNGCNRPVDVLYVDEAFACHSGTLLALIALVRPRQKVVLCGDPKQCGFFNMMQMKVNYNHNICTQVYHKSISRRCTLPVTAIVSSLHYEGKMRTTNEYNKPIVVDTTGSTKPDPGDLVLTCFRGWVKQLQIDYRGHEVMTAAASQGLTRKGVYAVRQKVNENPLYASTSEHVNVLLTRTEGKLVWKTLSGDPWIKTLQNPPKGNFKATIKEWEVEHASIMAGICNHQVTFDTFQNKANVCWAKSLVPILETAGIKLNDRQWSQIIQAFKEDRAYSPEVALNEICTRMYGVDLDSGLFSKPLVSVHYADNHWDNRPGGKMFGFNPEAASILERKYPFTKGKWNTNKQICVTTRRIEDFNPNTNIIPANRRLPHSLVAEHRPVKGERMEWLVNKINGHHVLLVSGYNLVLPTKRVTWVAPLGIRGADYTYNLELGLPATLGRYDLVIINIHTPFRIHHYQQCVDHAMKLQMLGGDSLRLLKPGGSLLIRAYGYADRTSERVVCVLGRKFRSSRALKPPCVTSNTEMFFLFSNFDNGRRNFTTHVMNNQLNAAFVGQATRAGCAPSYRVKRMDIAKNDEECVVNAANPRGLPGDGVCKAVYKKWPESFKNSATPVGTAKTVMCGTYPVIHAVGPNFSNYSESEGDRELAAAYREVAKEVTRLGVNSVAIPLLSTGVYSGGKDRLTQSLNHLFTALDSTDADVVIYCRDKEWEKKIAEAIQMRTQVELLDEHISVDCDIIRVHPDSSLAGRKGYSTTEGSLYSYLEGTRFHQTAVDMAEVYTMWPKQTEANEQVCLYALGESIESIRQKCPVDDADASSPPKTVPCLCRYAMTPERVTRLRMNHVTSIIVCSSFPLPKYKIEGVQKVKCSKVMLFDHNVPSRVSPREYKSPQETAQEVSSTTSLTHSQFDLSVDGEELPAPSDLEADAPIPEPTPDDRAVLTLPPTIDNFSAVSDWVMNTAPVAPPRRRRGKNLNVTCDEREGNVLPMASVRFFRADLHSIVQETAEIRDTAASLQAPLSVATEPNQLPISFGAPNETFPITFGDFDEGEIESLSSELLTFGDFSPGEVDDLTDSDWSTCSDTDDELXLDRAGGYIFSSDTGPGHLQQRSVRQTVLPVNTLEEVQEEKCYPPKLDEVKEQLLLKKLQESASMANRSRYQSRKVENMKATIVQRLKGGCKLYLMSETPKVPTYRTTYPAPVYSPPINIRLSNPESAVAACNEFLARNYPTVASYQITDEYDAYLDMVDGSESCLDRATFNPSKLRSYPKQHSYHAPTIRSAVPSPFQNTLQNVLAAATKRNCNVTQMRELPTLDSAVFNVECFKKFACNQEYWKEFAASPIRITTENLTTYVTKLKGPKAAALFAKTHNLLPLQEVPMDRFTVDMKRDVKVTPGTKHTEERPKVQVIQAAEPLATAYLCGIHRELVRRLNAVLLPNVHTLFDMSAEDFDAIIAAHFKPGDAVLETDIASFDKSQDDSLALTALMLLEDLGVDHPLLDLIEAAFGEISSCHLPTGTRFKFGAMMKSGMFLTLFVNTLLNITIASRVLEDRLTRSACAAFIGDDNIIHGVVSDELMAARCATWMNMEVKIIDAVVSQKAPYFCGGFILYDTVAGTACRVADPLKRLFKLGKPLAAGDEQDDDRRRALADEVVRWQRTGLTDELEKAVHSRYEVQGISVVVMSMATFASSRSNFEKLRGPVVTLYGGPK"}
{"SMILES": "COc1ccc(C[C@@H]2c3cc(Oc4cc(C[C@@H]5c6cc(O)c(OC)cc6CCN5C)ccc4O)c(OC)cc3CCN2C)cc1", "target": "Spike glycoprotein", "test": "binding, biolayer interferometry", "endpoint": "Kd", "result": "32.5 µM"}
{"SMILES": "CCC(C(=O)Nc1cc(NC2COC2)ccc1C)n1cccc2nc(SCc3ccc(F)cc3)nc1-2 (stereo not shown)", "target": "Replicase polyprotein 1ab, papain-like protease (rep, Middle East respiratory syndrome-related coronavirus, UniProt K9N7C7)", "test": "enzyme activity, inhibitor", "endpoint": "IC50", "result": "> 100 µM"}
{"SMILES": "Cn1cnc(Cn2c(=O)[nH]/c(=N\\c3cc4cn(C)nc4cc3Cl)n(Cc3cc(F)c(F)cc3F)c2=O)n1", "target": "Cytochrome P450 2B6 (CYP2B6, Homo sapiens, UniProt P20813)", "test": "inhibitor", "system": "human liver microsomes", "setting": "30 min preincubation, preincubation with NADPH, added: efavirenz 5 µM", "endpoint": "IC50", "result": "> 100 µM"}
{"SMILES": "CO[C@H]1[C@@H](O)[C@H](O[C@@H]2[C@@H](C)O[C@@H](O[C@H]3CC[C@@]4(C)[C@@H](CC[C@@]56O[C@@]57CC[C@@H](C(C)=O)[C@@]7(C)[C@H](OC(C)=O)[C@@H](OC(=O)c5ccccc5)[C@H]46)C3)C[C@H]2OC)O[C@H](C)[C@H]1O", "target": "Spike glycoprotein", "test": "binding, biolayer interferometry", "endpoint": "Kd", "result": "182 µM"}
{"SMILES": "CCC(C(=O)Nc1cc(NC2CCNC2)ccc1C)n1cccc2nc(SCc3ccc(F)cc3)nc1-2 (stereo not shown)", "target": "Replicase polyprotein 1ab, papain-like protease (rep, Middle East respiratory syndrome-related coronavirus, UniProt K9N7C7)", "test": "enzyme activity, inhibitor", "endpoint": "IC50", "result": "> 100 µM"}
{"SMILES": "CSCC[C@H](N)C(=O)N[C@@H](CC(=O)O)C(=O)N[C@H](C(=O)N[C@@H](CCC(N)=O)C(=O)N[C@@H](Cc1c[nH]c2ccccc12)C(=O)N[C@@H](CCCNC(=N)N)C(=O)N[C@@H](CCCNC(=N)N)C(=O)N[C@@H](Cc1c[nH]c2ccccc12)C(=O)O)[C@@H](C)O", "target": "Toxin B, glucosyltransferase domain (tcdB, Clostridioides difficile, UniProt Q9EXR0)", "endpoint": "Ki", "result": "2700 µM"}
{"SMILES": "OC[C@H]1O[C@@H](Oc2c(O)cc(O)cc2/C=C/c2ccc(O)cc2)[C@H](O)[C@@H](O)[C@@H]1O", "target": "Spike glycoprotein", "test": "biolayer interferometry", "endpoint": "Kd", "result": "66.2 µM"}
{"SMILES": "CCC(C(=O)Nc1ccccc1C)n1cccc2nc(S(=O)(=O)Cc3ccc(F)cc3)nc1-2 (stereo not shown)", "target": "Replicase polyprotein 1ab, papain-like protease (rep, Severe acute respiratory syndrome-related coronavirus, UniProt P0C6X7)", "test": "enzyme activity", "endpoint": "IC50", "result": "5.35 ± 0.46 µM"}
{"SMILES": "Cn1cc(-c2ncc(C(=O)NCC=CS(C)(=O)=O)s2)cn1", "target": "Polyprotein P1234 nsP2 protease domain", "test": "time-dependent inhibitor", "endpoint": "Ki", "result": "15 ± 1 µM"}
{"SMILES": "CC[C@H](C)[C@H]1O[C@]2(CC[C@@H]1C)C[C@@H]1C[C@@H](C/C=C(\\C)[C@@H](O[C@H]3C[C@H](OC)[C@@H](O[C@H]4C[C@H](OC)[C@@H](O)[C@H](C)O4)[C@H](C)O3)[C@@H](C)/C=C/C=C3\\CO[C@@H]4[C@H](O)C(C)=C[C@@H](C(=O)O1)[C@]34O)O2", "target": "Spike glycoprotein", "test": "biolayer interferometry", "endpoint": "Kd", "result": "30.5 µM"}
{"SMILES": "CCC(C(=O)Nc1cc(NC2CCOC2)ccc1C)n1cc(Br)cc2nc(SCc3ccc(F)cc3)nc1-2 (stereo not shown)", "target": "Replicase polyprotein 1ab, papain-like protease (rep, Middle East respiratory syndrome-related coronavirus, UniProt K9N7C7)", "test": "enzyme activity, inhibitor", "endpoint": "IC50", "result": "> 100 µM"}
{"SMILES": "CC(=O)O[C@@H]1[C@@H](O)[C@H](O[C@H]2CC[C@]34C[C@]35CC[C@]3(C)[C@@H]([C@@]6(C)CC[C@@H](C(C)(C)O)O6)[C@@H](O)C[C@@]3(C)[C@@H]5C[C@H](O[C@@H]3O[C@H](CO)[C@@H](O)[C@H](O)[C@H]3O)[C@H]4C2(C)C)OC[C@H]1O", "target": "Spike glycoprotein", "test": "binding", "endpoint": "Kd", "result": "168 µM"}
{"SMILES": "Cc1cc(C2CCCCC2)n(O)c(=O)c1", "target": "ACE2", "test": "spike protein binding", "setting": "added: SARS-CoV-2 spike protein", "endpoint": "AC50", "result": "2.67 µM"}
{"SMILES": "CSCC[C@H](NC(=O)[C@@H](N)CCC(=O)O)C(=O)N[C@@H](Cc1c[nH]cn1)C(=O)N[C@@H](CCC(N)=O)C(=O)N[C@@H](Cc1c[nH]c2ccccc12)C(=O)N[C@@H](CCCNC(=N)N)C(=O)N[C@@H](CCCNC(=N)N)C(=O)N[C@@H](Cc1c[nH]c2ccccc12)C(=O)O", "target": "tcdB", "test": "enzyme activity, inhibitor", "endpoint": "Ki", "result": "618 µM"}
{"SMILES": "C[C@H](CCC(=O)O)[C@H]1CC[C@H]2[C@@H]3CC[C@@H]4C[C@H](O)CC[C@]4(C)[C@H]3C[C@H](O)[C@]12C", "target": "ACE2", "test": "spike protein binding", "setting": "added: SARS-CoV-2 spike protein", "endpoint": "AC50", "result": "18.9 µM"}
{"SMILES": "O=c1cc(-c2ccccc2)c2ccc(O)c(O)c2o1", "target": "Spike glycoprotein", "test": "binding, biolayer interferometry", "endpoint": "Kd", "result": "61.1 µM"}
{"SMILES": "CCC(C(=O)Nc1cc(NC2CNC2)ccc1C)n1cc(Br)cc2nc(SCc3ccc(F)cc3)nc1-2 (stereo not shown)", "target": "Replicase polyprotein 1ab, papain-like protease (rep, Middle East respiratory syndrome-related coronavirus, UniProt K9N7C7)", "test": "enzyme activity, inhibitor", "endpoint": "IC50", "result": "> 100 µM"}
{"SMILES": "c1ccc(CCN2CCCCC2)cc1", "target": "sodium channel site 2, rat", "test": "binding", "system": "rat forebrain", "setting": "added: [3H]batrachotoxin 2 nM", "endpoint": "Ki", "result": "> 10 µM"}
{"SMILES": "CC(C)C[C@H](NC(=O)[C@@H](NC(=O)[C@@H](N)Cc1c[nH]cn1)[C@@H](C)O)C(=O)N[C@@H](CCC(=O)O)C(=O)N[C@@H](Cc1c[nH]c2ccccc12)C(=O)N[C@@H](CCCNC(=N)N)C(=O)N[C@@H](CCCNC(=N)N)C(=O)N[C@@H](Cc1c[nH]c2ccccc12)C(=O)O", "target": "tcdB", "test": "enzyme activity, inhibitor", "endpoint": "Ki", "result": "125 µM"}
{"SMILES": "CCC(C(=O)Nc1ccccc1C)n1cccc2nc(SCc3ccc(OC)cc3)nc1-2 (stereo not shown)", "target": "Replicase polyprotein 1ab, papain-like protease (rep, Severe acute respiratory syndrome-related coronavirus, UniProt P0C6X7)", "test": "enzyme activity", "endpoint": "IC50", "result": "2.5 ± 0.17 µM"}
{"SMILES": "COc1cccc(-c2nc(C(=O)NCC=CS(C)(=O)=O)c(C)[nH]2)c1", "target": "Polyprotein P1234 nsP2 protease domain", "test": "time-dependent inhibitor", "endpoint": "Ki", "result": "5 ± 1.3 µM"}
{"SMILES": "C[C@H]1CC[C@@]2(OC1)O[C@H]1C[C@H]3[C@@H]4CC[C@@H]5C[C@@H](O[C@@H]6O[C@H](CO)[C@H](O)[C@H](O)[C@H]6O[C@@H]6O[C@H](CO)[C@@H](O)[C@H](O)[C@H]6O)CC[C@]5(C)[C@H]4CC[C@]3(C)[C@H]1[C@@H]2C", "target": "Spike glycoprotein", "test": "binding, biolayer interferometry", "endpoint": "Kd", "result": "13.4 µM"}
{"SMILES": "CCC(C(=O)Nc1ccccc1C)n1cccc2nc(SCc3ccccc3F)nc1-2 (stereo not shown)", "target": "Replicase polyprotein 1ab, papain-like protease (rep, Middle East respiratory syndrome-related coronavirus, UniProt K9N7C7)", "test": "enzyme activity, inhibitor", "endpoint": "IC50", "result": "> 100 µM"}
{"SMILES": "CC(C)=CCc1cc2c(cc1O)O[C@H](c1ccc(O)cc1)CC2=O", "target": "Spike glycoprotein", "test": "binding, BLI", "endpoint": "Kd", "result": "43.8 µM"}
{"SMILES": "CCC(C(=O)Nc1cc(NC2CNC2)ccc1C)n1cc(Cl)cc2nc(SCc3ccc(F)cc3)nc1-2 (stereo not shown)", "target": "Replicase polyprotein 1ab, papain-like protease (rep, Middle East respiratory syndrome-related coronavirus, UniProt K9N7C7)", "test": "enzyme activity, inhibitor", "endpoint": "IC50", "result": "> 100 µM"}
{"note": "Some of these lines once more:"}
{"SMILES": "C[C@H](CCC(=O)O)[C@H]1CC[C@H]2[C@@H]3CC[C@@H]4C[C@H](O)CC[C@]4(C)[C@H]3C[C@H](O)[C@]12C", "target": "ACE2", "test": "spike protein binding", "setting": "added: SARS-CoV-2 spike protein", "endpoint": "AC50", "result": "18.9 µM"}
{"SMILES": "O=c1cc(-c2ccccc2)c2ccc(O)c(O)c2o1", "target": "Spike glycoprotein", "test": "binding, biolayer interferometry", "endpoint": "Kd", "result": "61.1 µM"}
{"SMILES": "CCC(C(=O)Nc1cc(NC2CNC2)ccc1C)n1cc(Br)cc2nc(SCc3ccc(F)cc3)nc1-2 (stereo not shown)", "target": "Replicase polyprotein 1ab, papain-like protease (rep, Middle East respiratory syndrome-related coronavirus, UniProt K9N7C7)", "test": "enzyme activity, inhibitor", "endpoint": "IC50", "result": "> 100 µM"}
